# Measured values pooled from the literature.
# A part holds a random share of what one study measured.

# Study 1
# Target: Interferon regulatory factor 5, full length, phosphomimetic (IRF5, Homo sapiens, UniProt Q13568-2, residues 1-514, K96S/S451D/S453D/S456D/S462D)
# Method: protein-binding microarray
# Molecule type: double-stranded DNA, one strand shown
# Matrix: in vitro
# Tested at: 250 nM
# Setting: 60-bp whole probe
# Together with: salmon DNA 0.4 mg/ml
# Reference: random background probes
# Reading: higher = stronger binding
# Constant ends, left off below: GCCTAGCAC … GTCTTGATTCGCTTGACGCTGCTG
Sequence,log fluorescence
TTAGCTTTCGGTCTCGGTTAGTGCTAG,10.7 z-score
GACCATATCGGGTATCGAGACGTGCTA,1.57 z-score
TTAGGTTTCGTTTCCGGTTAGTGCTAG,7.69 z-score
GACGGATTGGGTATCGGGACGTGCTAG,0.721 z-score
GACGATTTCAGACCGGAGACGTGCTAG,0.0638 z-score
TTAGATCTCCTTTTCCTTTAGTGCTAG,0.385 z-score
GAAGGTCACAAAGACTTCATGTGCTAG,-0.372 z-score
GACGAACTGGGGTATCGAGATGTGCTA,0.283 z-score

# Study 2
# Target: Replicase polyprotein 1ab, main protease (rep, Severe acute respiratory syndrome coronavirus 2, UniProt P0DTD1)
# Observed: enzyme activity
# Tested at: 20 µM
# Setting: with DTT
Compound,inhibition
O=C(O)c1cc(N2N=C(C(F)(F)F)/C(=C/c3ccc(-c4ccccc4)o3)C2=O)ccc1Cl,35.4%
Nc1nnc(Sc2ncc([N+](=O)[O-])s2)s1,25.9%
CCCOc1ccc(CSc2nnc[nH]2)cc1,32.8%
O=C(O)/C(S)=C/c1ccc(I)cc1,-14.6%

# Study 3
# Target: Ras GTPase-activating protein-binding protein 1, full length (G3BP1, Homo sapiens, UniProt Q13283)
# Sequence of UniProt Q13283 (whole entry, looked up): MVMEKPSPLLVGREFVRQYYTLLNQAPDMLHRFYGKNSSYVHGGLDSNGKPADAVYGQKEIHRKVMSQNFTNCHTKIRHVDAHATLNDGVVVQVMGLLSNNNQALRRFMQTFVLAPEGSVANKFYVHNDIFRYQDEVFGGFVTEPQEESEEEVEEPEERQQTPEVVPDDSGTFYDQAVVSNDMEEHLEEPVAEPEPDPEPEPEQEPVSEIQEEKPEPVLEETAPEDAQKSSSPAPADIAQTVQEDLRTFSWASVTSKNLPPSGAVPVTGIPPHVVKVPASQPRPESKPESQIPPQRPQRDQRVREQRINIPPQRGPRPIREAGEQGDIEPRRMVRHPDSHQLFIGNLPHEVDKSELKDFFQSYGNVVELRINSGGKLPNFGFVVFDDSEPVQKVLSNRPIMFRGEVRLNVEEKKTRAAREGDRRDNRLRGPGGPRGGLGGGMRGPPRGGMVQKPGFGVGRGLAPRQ
# Method: RNA Bind-n-Seq
# Molecule type: RNA
# Matrix: in vitro
# Tested at: 200 nM
# Setting: whole 134-nt RNA, ends assumed
# Together with: 150 mM KCl
# Reference: input library
# Reading: higher = stronger binding
# Constant ends, left off below: GGGAGUUCUACAGUCCGACGAUC … UGGAAUUCUCGGGUGUCAAGG
Sequence,log2 enrichment
CUCAAGUCCUGUGCUACACAUCGUAUGUACCGAAUCGGGAGGGAAAGGGUGGGAAAGUAUUAUGUUACGCCGUUCGGAUCUGCACUUCCA,1.29
AAGUCCUGUGCUACACAUCGUAUGUACCGAAUCGGGGAAAGGGAAAGGGGAAAGGGAAAGUAUUAUGUUACGCCGUUCGGAUCUGCACUU,0.277
UGGACUGCCUAUGGAAGAAGAAGUUCAAGAAGGAGCACGAGGAGUUUGAGACCAUGGAGAACGUGAACCGCCUUCUUCUGGAGAACGUCC,-0.554
AAGUCCUGUGCUACACAUCGUAUGUACCGAAUCGGAAAAAGGAAAGGUUUUUUUGGAAAGUAUUAUGUUACGCCGUUCGGAUCUGCACUU,-1.7
GUCCUGUGCUACACAUCGUAUGUACCGAAUCGGUUUUUGGAAAAAAAGGUUUUUUUGGAAAGUAUUAUGUUACGCCGUUCGGAUCUGCAC,-1.29
UAUCAGGAGGGCAGACUUCAAAAGCUACUAAAAAUGAACGGCCCUGAAGAUCUUCCCAAGUCCUAUGACUAUGACCUUAUCAUCAUUGGA,-1.08
AGUCCUGUGCUACACAUCGUAUGUACCGAAUCGGGAGGGAAAAAAAGGGAAAAAGGGAAAGUAUUAUGUUACGCCGUUCGGAUCUGCACU,-0.052
CCUCAAGUCCUGUGCUACACAUCGUAUGUACCGAAUCGGGGCGGGCGGGCGGGAAAGUAUUAUGUUACGCCGUUCGGAUCUGCACUUCCA,1.29

# Study 4
# Cell line: HEK-293T/ACE2
# Observed: pseudovirus infection
# Organism: VSV pseudotyped with SARS-CoV-2 spike
# Tested at: concentration not given
# Reference: vehicle-treated
Compound,GFP-positive cells
CCOc1cc([C@@H](CS(C)(=O)=O)N2C(=O)c3cccc(NC(C)=O)c3C2=O)ccc1OC,80.1%
NCC[C@H](O)C(=O)N[C@@H]1C[C@H](N)[C@@H](O[C@H]2O[C@H](CN)[C@@H](O)[C@H](O)[C@H]2O)[C@H](O)[C@H]1O[C@H]1O[C@H](CO)[C@@H](O)[C@H](N)[C@H]1O.O=S(=O)(O)O.O=S(=O)(O)O,88.4%
CC(C)C(=O)OCC(=O)[C@@]12O[C@H](C3CCCCC3)O[C@@H]1C[C@H]1[C@@H]3CCC4=CC(=O)C=C[C@]4(C)[C@H]3[C@@H](O)C[C@@]12C,28.9%
COc1cc2c(cc1Cc1cccc(Cl)c1F)c(=O)c(C(=O)O)cn2[C@H](CO)C(C)C,120%

# Study 5
# Target: Replicase polyprotein 1ab, nsp13 helicase (rep, Severe acute respiratory syndrome coronavirus 2, UniProt P0DTD1)
# Mode: inhibitor
# Tested at: 20 µM
Compound,inhibition [%]
Cc1nn(C)c2nc(NNC(=O)Nc3cc(Cl)nc(Cl)c3)cc(C(C)C)c12,8.4
COc1cc2nc(C3CC3)nc(N3CCN(c4ccccc4OC)CC3)c2cc1OC,0.45
NC(=O)c1cn([C@@H]2O[C@H](CO)[C@@H](O)[C@H]2O)c2ncnc(N)c2c1=O,0.18
CCOC(=O)CCC(=O)O[C@H]1[C@H](O[C@@H]2[C@@H](C)[C@H](O[C@H]3C[C@@](C)(OC)[C@@H](O)[C@H](C)O3)[C@@H](C)C(=O)O[C@H](CC)[C@@](C)(O)[C@H](O)[C@@H](C)C(=O)[C@H](C)C[C@@]2(C)O)O[C@H](C)C[C@@H]1N(C)C,3.74
NC(=O)N1CCC(CC(=O)N2CCC([C@H]3c4ncc(Br)cc4CCc4cc(Cl)cc(Br)c43)CC2)CC1,4.76
CC(=O)Nc1ccc(C(=O)O)cc1,0.97
CN(C(=O)Cc1ccccc1)[C@H](CN1CCCC1)c1ccccc1,7.37
N[C@@H](Cc1cc(CP(=O)(O)O)cc(-c2ccccc2Cl)c1)C(=O)O,16.1
C/C=C1/[C@H](O[C@@H]2O[C@H](CO)[C@@H](O)[C@H](O)[C@H]2O)OC=C(C(=O)OC)[C@H]1CC(=O)OCCc1ccc(O)c(O)c1,5.64
Cc1cccc(OCC(O)CNC(C)(C)C)c1C (stereo not shown),4.99
COc1ccccc1CC(=N)N1C[C@@H]2C(=O)CCC(c3ccccc3)(c3ccccc3)[C@@H]2C1,29.2
CC(=O)CC(=O)O,0.36
COc1ccc2c(c1)C=C1Cn3c-2c(C2CCCCC2)c2ccc(cc23)C(=O)NS(=O)(=O)N(C)CCOCCN(C)C1=O,53.1
C[C@H](NC(=O)Cc1cc(F)cc(F)c1)C(=O)N[C@@H]1C(=O)N(C)c2ccccc2-c2ccccc21,-0.6
COc1ncc2cc(C(=O)Nc3cc(C(=O)NCc4cccc(Cl)c4)ccc3Cl)c(=O)[nH]c2n1,-4.21
N=c1ccn2c(n1)O[C@H]1[C@H](O)[C@@H](CO)O[C@H]12,4.88
C#C[C@]1(O)CC[C@H]2[C@@H]3CCC4=CC(=O)CC[C@@H]4[C@H]3CC[C@@]21C,-1.47
COc1ccc2cc1Oc1ccc(cc1)C[C@H]1c3cc(c(OC)cc3CCN1C)Oc1c(OC)c(OC)cc3c1[C@H](C2)N(C)CC3,5.9
Cc1cccc(C(C)c2c[nH]cn2)c1C (stereo not shown),2.58

# Repeated from above (study 5):
Compound,inhibition [%]
CCOC(=O)CCC(=O)O[C@H]1[C@H](O[C@@H]2[C@@H](C)[C@H](O[C@H]3C[C@@](C)(OC)[C@@H](O)[C@H](C)O3)[C@@H](C)C(=O)O[C@H](CC)[C@@](C)(O)[C@H](O)[C@@H](C)C(=O)[C@H](C)C[C@@]2(C)O)O[C@H](C)C[C@@H]1N(C)C,3.74
NC(=O)N1CCC(CC(=O)N2CCC([C@H]3c4ncc(Br)cc4CCc4cc(Cl)cc(Br)c43)CC2)CC1,4.76
CC(=O)Nc1ccc(C(=O)O)cc1,0.97
CN(C(=O)Cc1ccccc1)[C@H](CN1CCCC1)c1ccccc1,7.37
N[C@@H](Cc1cc(CP(=O)(O)O)cc(-c2ccccc2Cl)c1)C(=O)O,16.1
C/C=C1/[C@H](O[C@@H]2O[C@H](CO)[C@@H](O)[C@H](O)[C@H]2O)OC=C(C(=O)OC)[C@H]1CC(=O)OCCc1ccc(O)c(O)c1,5.64
Cc1cccc(OCC(O)CNC(C)(C)C)c1C (stereo not shown),4.99
